Measured values collected from several papers.
Each numbered part is a random draw from the data of one study; scales do not carry over between parts. Changes are numbered by the printed parent chain.

Sample 1 — technique: universal PBM; form: double-stranded DNA, one strand shown; matrix: in vitro; concentration: not given; reading: higher = stronger binding
Target: Sal-like protein 4, full length isoform B (SALL4, Homo sapiens, UniProt Q9UJQ4-2, residues 1-616)
Setting: 8-mer, flanks averaged, mean of replicates
Construct (chain): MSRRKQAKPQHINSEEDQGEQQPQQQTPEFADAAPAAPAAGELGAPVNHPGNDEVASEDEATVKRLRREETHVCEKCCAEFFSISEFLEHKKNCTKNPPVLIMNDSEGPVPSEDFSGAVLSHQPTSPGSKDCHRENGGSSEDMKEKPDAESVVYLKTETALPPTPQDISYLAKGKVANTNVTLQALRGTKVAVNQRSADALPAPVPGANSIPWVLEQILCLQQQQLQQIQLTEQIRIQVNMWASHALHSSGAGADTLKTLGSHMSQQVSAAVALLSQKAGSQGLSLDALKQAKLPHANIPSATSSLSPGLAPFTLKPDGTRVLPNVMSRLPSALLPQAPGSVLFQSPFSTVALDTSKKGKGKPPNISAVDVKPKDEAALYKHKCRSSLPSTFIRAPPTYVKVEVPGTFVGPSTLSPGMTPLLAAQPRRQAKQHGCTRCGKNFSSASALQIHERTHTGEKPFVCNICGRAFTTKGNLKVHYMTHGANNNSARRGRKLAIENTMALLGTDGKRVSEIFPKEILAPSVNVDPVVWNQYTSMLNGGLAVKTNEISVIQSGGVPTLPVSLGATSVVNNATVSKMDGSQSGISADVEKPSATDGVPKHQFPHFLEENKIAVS
Oligonucleotide	E-score
GCGTACCC	-0.128
CACAGGGC	-0.16
AGCAGCAT	-0.0654
GCCAGGCA	-0.233
CGCTTCGA	-0.274
ACTTGTGA	0.116
GAAGATCA	0.0696
AACCAAAT	0.0378
AGGATACG	0.0107
AAGAACGC	-0.0117
CGGTCTGA	-0.218
AAGAGGAT	0.0466
TAATGCCA	0.211
GCCGACAA	-0.179
AGTGTCCG	-0.112
GACGGTCA	-0.12
CTTTTACA	0.208
CTCACTTC	-0.206
ACTTCGCC	-0.0857

Sample 2 — technique: DHFR PCA, deep sequencing; matrix: yeast; added: (+)-ABA 1.4 µM; baseline: wild-type fitted maximum; reading: higher = stronger binding
Target: ABI1, truncated, D143A, DHFR fusion (Arabidopsis thaliana)
Setting: methotrexate growth selection, single substitutions
Parent: PYL1, truncated, DHFR fusion (Arabidopsis thaliana); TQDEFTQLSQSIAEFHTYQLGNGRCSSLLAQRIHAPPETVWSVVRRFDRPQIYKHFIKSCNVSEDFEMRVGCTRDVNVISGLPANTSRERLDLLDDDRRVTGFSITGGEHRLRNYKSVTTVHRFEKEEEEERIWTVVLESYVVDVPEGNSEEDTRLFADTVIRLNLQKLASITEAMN
Variant	relative binding score [%]
V161K	-0.789
I52Y	26.6
R90N	-14.2
V70M	9.65
V142Q	47.1
V40K	-29.2
P83M	-6.77
R99D	-8.5
G71N	0.182
L112V	-6.88
A30L	48.1
I105Y	-2.69
D65V	13
G108H	-17.6
R155P	8.2
P37C	29.6
T120E	-3.96
G21I	34.8
L82F	56
H122W	-2.77
A175L	32.1
E125C	70.3
T86K	28.9
F103Q	-1.73
A35L	-14.7

Sample 3 — technique: RNA Bind-n-Seq; form: RNA; matrix: in vitro; concentration: 365 nM; baseline: no-protein control; reading: higher = stronger binding
Target: RNA binding protein fox-1 homolog 2, RRM domain, GST-SBP tag (RBFOX2, Homo sapiens, UniProt O43251-10, residues 100-194)
Setting: natural RNA segment, single round, ends assumed
Constant ends, left off below: GGGAGUUCUACAGUCCGACGAUC … UGGAAUUCUCGGGUGCCAA
Target sequence (chain): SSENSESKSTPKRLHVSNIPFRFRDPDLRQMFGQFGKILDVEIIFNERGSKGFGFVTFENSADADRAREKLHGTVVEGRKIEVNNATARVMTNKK
Oligonucleotide	RBNS enrichment (R)
AACAGCCCAGGGGCCUUUAUUUUGGGAAAGGCUGUCCCGGGCUGUUACUGUCUCUUCUGGUUAUAAAGCAGACAUGUGGCCAUCUUUUCCGCAGGGUUAGAGUGGGCUCC	0.417
AUCUGGGUAAAUAGAGGACAAAACUAAUUCUUUGAGGCUUUAACUUGGGCACUUGCCUUGAUUCCUUUUAUUAUUGGAAGUCAGAUACCCCCUCUCCAAAGUGAGCAGGC	0.433
CAACGGCUGGGACUGACCCCCGCUCCCCCGACGCAUGUGGCUCCAGCCCGGCCUGGCCGCCAGGGAGCGCCACUGGCUUCCCGCCACCCGAAGGGAGCUCUGGACCCUCA	1.8
AAGCCAUUUUGGUUCAUCCUGAUCACUUGAAUGAUAGACUCAAUGCCCUGUGCCUGGCAGGGAGCGCUUGCAGAGGUGUCCUAGCCUUAGAGGGCUACUUCAGUGUCUCU	0.273
AGGGGGGCAACAUGAAGGAGGUGUUCACCCGCUUCUGCACCGGCCUCACCCAGAUUGAAACUCUCUUCAAGUCUAAGGACUAUGAGUUCAUGUGGAACCCUCACCUGGGC	0.177
GACUUGGGAAAAUGUUUCUGGAGAGGCUUUCAGAGUGGCUGGAAAAGGCUCUUGUUGCUGUAAUUUAGAGAGGAGCUCUGUGUCCUUGGCCAGUCAAGUAAGUUCCUGGA	0.451
AAUGCAUUUGAUGAGUGCUGGAAACUUCUUAAGUGCUUUACAGUUUGUUUUCAUUGUUUGCAGCGGAUCACUGGACAUCAAAGAUUCAUUGCACUUAUGAACAAGGAACC	0.505
UUGCUUUCAUAGCAUCUCAGACUACUUGGAACUCCAAGGACUGCCUAACUAAAGUACUUUCACAAACACUAACAUUCAGAAGGAUGUUGAGAAAGCAAGAUCUAAUCUGA	0.433

Sample 4 — technique: protein-binding microarray; form: double-stranded DNA, one strand shown; matrix: in vitro; concentration: not given; reading: higher = stronger binding
Target: Protein C-ets-1 (ETS1, Homo sapiens, UniProt P14921, residues 1-441, K379A, full length assumed)
UniProt P14921, sequence (whole entry, unmodified, looked up): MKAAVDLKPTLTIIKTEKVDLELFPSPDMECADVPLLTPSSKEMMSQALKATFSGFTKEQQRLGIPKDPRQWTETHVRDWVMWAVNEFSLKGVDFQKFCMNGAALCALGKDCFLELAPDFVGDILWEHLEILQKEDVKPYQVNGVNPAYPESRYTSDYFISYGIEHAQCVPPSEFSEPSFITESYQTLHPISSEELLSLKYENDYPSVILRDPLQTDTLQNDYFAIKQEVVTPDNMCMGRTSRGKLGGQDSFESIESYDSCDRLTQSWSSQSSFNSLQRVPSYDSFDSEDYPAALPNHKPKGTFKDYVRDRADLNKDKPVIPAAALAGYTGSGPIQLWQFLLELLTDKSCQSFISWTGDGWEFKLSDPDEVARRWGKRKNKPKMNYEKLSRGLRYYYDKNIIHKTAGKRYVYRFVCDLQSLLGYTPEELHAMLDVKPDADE
Setting: k-mer, scored over probes, only values ≥0.25
Oligonucleotide	E-score
CCGGTAGA	0.35
CCGGAATA	0.269
AGCCGGAA	0.341
CGGTAACA	0.327
GACCTTTA	0.253
CACCGGGA	0.425
ATCCGGTA	0.41
CATACCGG	0.413
ATTCCGGA	0.273
GTCGGTTA	0.274
ATCGGTTA	0.265
AACCTTTA	0.257
ACATCCGG	0.443
GGCCGGGA	0.364
CCCGGATA	0.27
CGTCGGAA	0.253
GCATACAC	0.261
ATAGTACC	0.328
AACTCCGG	0.343

Sample 5 — technique: protein binding microarray; form: double-stranded DNA, one strand shown; matrix: in vitro; concentration: not given; baseline: not given; reading: higher = stronger binding
Target: Histone acetyltransferase KAT6A, both winged helices, GST fusion (KAT6A, Homo sapiens, UniProt Q92794, residues 1-181)
Setting: 8-mer, flanks averaged, mean of 2 arrays, mostly near background
Construct (chain): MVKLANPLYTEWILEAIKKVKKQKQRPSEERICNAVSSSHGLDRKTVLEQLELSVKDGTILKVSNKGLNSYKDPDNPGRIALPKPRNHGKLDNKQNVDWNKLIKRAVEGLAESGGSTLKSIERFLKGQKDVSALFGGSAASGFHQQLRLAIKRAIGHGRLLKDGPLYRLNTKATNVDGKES
Oligonucleotide	E-score
TCTCGAGA	0.0378
CTGGGTAC	-0.0856
AATCGTCC	0.148
CGTAACCC	0.248
AAACAAGC	0.0298
CTTCTGGA	-0.0606
AACTGGGG	-0.259
CACACGTC	-0.00958
TAGTTGCA	-0.0872
CTCTACGC	-0.07
ACTTAATA	-0.0868
CCATCGAG	-0.00137
AACTAGAT	-8.5e-05
AATCCCCG	0.0877
AAATTGGT	-0.127
CTACTGTC	-0.0896
TGGCTGAA	-0.0876
AACTTGGA	-0.0305
ATAACCGG	0.174
ATAAAACC	0.0269
CCACAATC	-0.139
GCAGGTCA	-0.116
CGAGGTAC	-0.05
AGTCCACG	0.074
ACCTCTAT	-0.0416

A few entries again (sample 1):
Oligonucleotide	E-score
AGTGTCCG	-0.112
TAATGCCA	0.211
ACTTCGCC	-0.0857
GAAGATCA	0.0696
GCCAGGCA	-0.233
AAGAACGC	-0.0117
CGCTTCGA	-0.274
GCCGACAA	-0.179
AGCAGCAT	-0.0654
CTCACTTC	-0.206
ACTTGTGA	0.116
AAGAGGAT	0.0466
CTTTTACA	0.208
AACCAAAT	0.0378
